Assay results collected from several papers.
A part holds a random share of what one study measured. Changes are numbered by the printed parent chain.

Series 1 — target: UBE2G1 UBC core domain (UniProt P62253); method: yeast two-hybrid; medium: yeast; setting: mostly zero background; baseline: not given; direction: higher = stronger interaction
B1: TRIM55 RING domain (UniProt Q9BYV6); chain TMDNLEKQLICPICLEMFTKPVVILPCQHNLCRKCASDIFQASNPYLPTRGGTTMASGGRFRCPSCRHEVVLDRHG
B2: TRIM52 RING domain (UniProt Q96A61); chain PMQTLQEEAVCAICLDYFKDPVSISCGHNFCRGCVTQLWSKEDEEDQNEEEDEWEEEEDEEAV
B3: RNF150 RING domain (UniProt Q9ULK6); chain DKETESDFDNCAVCIEGYKPNDVVRILPCRHLFHKSCVDPWLLDHRTCPMCKMNILKALGIP
B4: RNF32 RING domain (UniProt Q9H0A6); chain SLLQGDSVQPCPICKEEFELRPQVLLSCSHVFHKACLQAFEKFTNKKTCPLCRKNQYQTRVIH
B5: RNF43 RING domain (UniProt Q68DV7); chain SGSSCSSAPVCAICLEEFSEGQELRVISCLHEFHRNCVDPWLHQHRTCPLCMFNITEGDSFS
B6: NSMCE1 RING domain (UniProt Q8WV22); chain RETYPDAVKICNICHSLLIQGQSCETCGIRMHLPCVAKYFQSNAEPRCPHCNDYWPHEIPKV
B7: PHF7 RING domain (UniProt Q9BWX1); chain IQHGHVGEESCILCCEDLSQQSVENIQSPCCSQAIYHRKCIQKYAHTSAKHFFKCPQCNNRKEFPQEML
B8: RNF4 RING domain (UniProt P78317); chain TGLRPSGTVSCPICMDGYSEIVQNGRLIVSTECGHVFCSQCLRDSLKNANTCPTCRKKINHKRYHP
B9: MSL2 RING domain (UniProt Q9HCI7); chain LLPYFRQSLSCCVCGHLLQDPIAPTNSTCQHYVCKTCKGKKMMMKPSCSWCKDYEQFEENKQ
B10: RNF5 RING domain (UniProt Q99942); chain ERGGAGATFECNICLETAREAVVSVCGHLYCWPCLHQWLETRPERQECPVCKAGISREKVVP
B11: TRIM10 RING domain (UniProt Q9UDY6); chain SVTSLADEVNCPICQGTLREPVTIDCGHNFCRACLTRYCEIPGPDLEESPTCPLCKEPFRPGSFRP
B12: RNF149 RING domain (UniProt Q8NC42); chain EKGIDVDAENCAVCIENFKVKDIIRILPCKHIFHRICIDPWLLDHRTCPMCKLDVIKALGYW
Construct (chain): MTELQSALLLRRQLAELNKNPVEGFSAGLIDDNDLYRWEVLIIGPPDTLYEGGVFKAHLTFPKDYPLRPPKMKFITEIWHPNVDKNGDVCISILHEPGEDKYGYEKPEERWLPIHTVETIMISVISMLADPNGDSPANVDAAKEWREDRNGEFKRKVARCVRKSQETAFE
Sequence	lacZ reporter activity
MANWVFCNRCFQPPHRTSCFSLTNCGHVYCDACLGKGKKNECLICKAPCRTVLLSK (RNF212 RING domain (UniProt Q495C1))	0
SYEDKSNDFVCPICFDMIEEAYMTKCGHSFCYKCIHQSLEDNNRCPKCNYVVDNIDHLY (COP1 RING domain (UniProt Q8NHY2))	0
ISNDSETLEECMVCSDMKRDTLFGPCGHIATCSLCSPRVKKCLICKEQVQSRTKIE (MIB1 RING domain (UniProt Q86YT6))	0
B1 (TRIM55 RING domain)	0
B2 (TRIM52 RING domain)	0
B3 (RNF150 RING domain)	0
B4 (RNF32 RING domain)	0
B5 (RNF43 RING domain)	0
B6 (NSMCE1 RING domain)	0
B7 (PHF7 RING domain)	0
B8 (RNF4 RING domain)	0
FLKKLEQSFMCVCCQELVYQPVTTECFHNVCKDCLQRSFKAQVFSCPACRHDLGQNYIMI (UHRF2 RING domain (UniProt Q96PU4))	0
B9 (MSL2 RING domain)	0
B10 (RNF5 RING domain)	0
B11 (TRIM10 RING domain)	0
B12 (RNF149 RING domain)	0

Series 2 — method: RNA Bind-n-Seq; form: RNA; medium: in vitro; concentration: 20 nM; setting: 6-mer, flanks averaged, single round; together with: 150 mM KCl; baseline: input library; direction: higher = stronger binding
Target: TAR DNA-binding protein 43, full length, His tag (TARDBP, Homo sapiens, UniProt Q13148, residues 1-414)
Sequence	6-mer enrichment (R)
CAACCA	0.627
GGACCA	1.1
UCACUA	0.559
UGUAUC	0.621
CCUUGC	0.713
CGAUAG	0.807
UCUCAG	0.624
CCUCCG	0.626
UUAUUU	0.703
GUCCGA	0.823
GCGUCA	0.903
AUAUUU	0.657
CCCUAU	0.643
AGCGAA	0.847
GUAAAG	1.02
AUACUA	0.609
UAGAAU	0.723

Series 3 — target: CCNF, cyclin fold, Cln2 fusion (human); method: yeast growth competition, sequencing; medium: yeast; setting: strong parent motif; baseline: not given; direction: higher = stronger binding
Starting sequence: SCAPER docking peptide (human); SNARRSLNFGGST
Change	normalised enrichment score
S6C	7.99
G10P	5.43
G11Y	7.11
L7Q	1.54
S6Y	7.68
S1T	7.71
T13S	7.98
N8W	8.44
S1F	8.55
T13L	7.46
R4M	3.72
A3G	3.5
S6N	5.16
S1P	8.67
N2C	5.9
S12A	8.29
A3H	2.69
S12G	7.99
L7P	0.406
G10C	6.1

Series 4 — method: protein-binding microarray; form: double-stranded DNA, one strand shown; medium: in vitro; concentration: 250 nM; setting: 60-bp whole probe; together with: salmon DNA 0.4 mg/ml; baseline: random background probes; direction: higher = stronger binding; shared flanks, not repeated: GCCTAGCAC … GTCTTGATTCGCTTGACGCTGCTG
Target: Interferon regulatory factor 7, full length, phosphomimetic (IRF7, Homo sapiens, UniProt Q92985, residues 1-503, S101K/S471D/S472D/S475D/S476D/S477D/S483D/S484D/S487D)
Target sequence (chain): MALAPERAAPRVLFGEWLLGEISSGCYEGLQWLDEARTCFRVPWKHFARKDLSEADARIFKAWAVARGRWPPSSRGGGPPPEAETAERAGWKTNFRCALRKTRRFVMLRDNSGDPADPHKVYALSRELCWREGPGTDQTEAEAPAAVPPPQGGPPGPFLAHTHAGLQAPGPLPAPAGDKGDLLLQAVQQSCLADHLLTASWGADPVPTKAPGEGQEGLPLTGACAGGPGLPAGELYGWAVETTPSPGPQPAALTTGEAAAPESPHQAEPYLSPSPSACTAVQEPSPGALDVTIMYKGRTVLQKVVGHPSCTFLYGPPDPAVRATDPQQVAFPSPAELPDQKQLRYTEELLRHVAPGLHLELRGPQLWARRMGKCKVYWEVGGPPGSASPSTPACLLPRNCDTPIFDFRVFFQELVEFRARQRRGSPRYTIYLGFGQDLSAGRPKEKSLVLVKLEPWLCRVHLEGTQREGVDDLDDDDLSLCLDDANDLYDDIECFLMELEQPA
Sequence	log fluorescence [z-score]
GACGGACTCCTTATCCTGACGTGCTAG	-0.14
TTAGGCTTCGGTATCGGTTAGTGCTAG	1.15
TTAGGACGGGGGTTTCGGTTAGTGCTA	7.72
ACTGAAATCACCCTTGGAAGTGTGCTA	-0.512
GACGGTATCCCTTTCCTGACGTGCTAG	0.723
TTCCTTATTGCTTCCTCTTTGTGCTAG	1.85
TTTGGACTGGGTATCGGTTAGTGCTAG	0.175
TTAGATTTCAGACTGGATCAGTGCTAG	0.00692
GACGGTATCGGGTATCGGGAAGTGCTA	0.402
GACGATTTGAGTATCGAGACGTGCTAG	0.209
GACGGTTTCCCTCTCCTGACGTGCTAG	1.78
TTCGATTTCAGTTTCGATTAGTGCTAG	8.85
CATGCTCTTATATACCTGTATGTGCTA	0.415
TTCGATATCAGTATCGATTAGTGCTAG	0.784
CTTTGACTCTTTCTGTCAGTGTGCTAG	0.542
ATATATATCCATTATAGATGGTGCTAG	0.545
TCAATTTTTTTTTTCATACTGTGCTAG	0.448
TCAAACATCCCAATGGCACTGTGCTAG	-0.382
TCAGCATTTTTTTTATCACTGTGCTAG	-0.0676
GGCGGTCTCGGTCTCGGGACGTGCTAG	0.836
TCATATCCCTAATCTCAGACTGTGCTA	1.04
CTTTTTCCCTATTATATATATGTGCTA	5.55
TTAGAACTGCTTATCCTTTAGTGCTAG	0.0469
TTAGTTATCGACTTTCGGTTAGTGCTA	2.1
TTAGGACTGGGGCCTGGGTTAGTGCTA	-0.284
